Values quoted from earlier work that unrelated publications cite.
± marks the error that the study gave.

The IC50 of `Nc1nc2[nH]c(CCCCCc3ccc(C(=O)N[C@@H](CCC(=O)O)C(=O)O)cc3)cc2c(=O)[nH]1` is reported as over 1 µM (CHO PC43-10, human RFC-expressing; cell growth).
With `C=C(C)C(O)Cc1c(O)ccc2ccc(=O)oc12` (centres unmarked) the IC50 was 2.2 µM (neutrophils; superoxide production; added: fMLF).
`CN(C)[C@H]1C[C@@]23CC[C@@]4(O2)C(=CC[C@]2(C)[C@@H](c5ccc6ccncc6c5)CC[C@H]24)C=C3[C@@H](O)[C@@H]1O` has an IC50 of 0.35 µM (HUVEC; cell proliferation).
The IC50 of `Oc1ccc(/C=C/c2cc(O)cc(O)c2)cc1` is reported as 32.2 µM (184B5/HER; PGE2 production, inhibitor).
With `C=C1C(=O)O[C@@H]2/C=C(/CO)C3=CC(=O)[C@@](C)(C[C@@H](OC(=O)/C(C)=C/C)[C@@H]12)O3` the IC50 was 16.8 µM (human neutrophils; elastase release, inhibitor; added: fMLF).
`COc1ccc(N(C)c2nc(C)nc3ccn(C)c23)cc1` gave an IC50 of 0.0043 ± 0.0003 µM (MDA-MB-435; cell growth).
`Nc1nc2[nH]c(CCCCCCCC(=O)N[C@@H](CCC(=O)O)C(=O)O)cc2c(=O)[nH]1` gave an IC50 of 0.0011 ± 0.00088 µM (KB; cell proliferation, inhibitor).
With `CC(C)C[C@H]1NC(=O)[C@H](CC(=O)O)NC(=O)CNC(=O)[C@H](CCCNC(=N)N)NC(=O)[C@H](C)NC1=O` the IC50 was 0.91 µM (WM-115; cell adhesion, inhibitor; added: immobilized CagL RAD mutant).
For `CCCS(=O)(=O)Nc1ccc(F)c(C(=O)c2c[nH]c3ncc(-c4ccc(Cl)cc4)cc23)c1F`, the IC50 was 0.1 to 10 µM (BRAF V600E melanoma cell lines; cell growth).
`COc1ccc(/C=C\c2cc(OC)c(OC)c(OC)c2)cc1O` has an IC50 of 0.0034 ± 0.0006 µM (MDA-MB-435; cell proliferation).
The IC50 of `CC(C)(O)c1cc2nn(CCS(C)(=O)=O)cc2cc1NC(=O)c1cccc(C(F)(F)F)n1` is reported as 1.27 µM (rat splenic cells; TNF-alpha secretion, inhibitor; 24 h, added: LPS 0.1 µg/mL).
`COc1c(O)ccc2c1cnc1c3cc4c(cc3ccc21)OCO4` gave an IC50 of 4.1 µM (neutrophils; superoxide production; added: fMLF).
For `COc1ccc(N(C)c2nc(C)nc3[nH]ccc23)cc1`, the IC50 was 0.435 ± 0.033 µM (SK-OV-3 MDR-1-6/6, Pgp-expressing; cell growth).
For `Nc1nc2[nH]c(CCCCCCc3ccc(C(=O)N[C@@H](CCC(=O)O)C(=O)O)cc3)cc2c(=O)[nH]1`, the IC50 was over 1 µM (CHO RT16, human FRα-expressing; cell growth; added: folic acid 200 nM).
`CC1(C)C=Cc2cc3ccc(=O)oc3cc2O1` gave an IC50 of 18.4 µM (neutrophils; superoxide production; added: fMLF).
`COC(=O)c1cc2c(C(F)(F)F)cc(-c3ccccc3)cc2n1O` has an IC50 of 44.1 ± 6.2 µM (A549; cell growth, SRB; 72 h, normoxia).
The IC50 of `COC1=CC(=O)c2cc(-c3ccc(OC)c(O)c3)c3cc(O)c(OC)cc3c2C1=O` is reported as 0.99 µM (neutrophils; superoxide production; added: fMLF).
`CC(C)C[C@H](NC(=O)[C@H](CCc1ccccc1)NC(=O)CN1CCOCC1)C(=O)N[C@@H](Cc1ccccc1)C(=O)N[C@@H](CC(C)C)C(=O)[C@@]1(C)CO1` gave an IC50 of 0.492 µM (HFF fibroblasts; cell growth).
The IC50 of `Nc1nc2[nH]c(CCCc3ccc(C(=O)N[C@@H](CCC(=O)O)C(=O)O)s3)cc2c(=O)[nH]1` is reported as over 1 µM (KB; cell growth; added: folic acid 200 nM).
For `Cc1ccc2c(c1)C1(NN=C(c3ccccc3)S1)C(=O)N2` (centres unmarked), the IC50 was 5.9 µM (HepG2; fatty acid uptake).
The IC50 of `CCc1ccc(/C=C2\SC(=S)NC2=O)cc1` is reported as 52 to 90 µM (multiple myeloma cell lines, human; cell growth).
`C=C1C(=O)O[C@H]2[C@H]1CC/C(C)=C/CC[C@@]1(C)O[C@@H]21` has an IC50 of 8.8 ± 2.1 µM (U-87 MG; cell growth, inhibitor).
The IC50 of `CC(C)(C)c1ccc(S(=O)(=O)NCc2ccc(C(=O)Nc3cccnc3)cc2)cc1` is reported as 7.9 µM (RCC4 (VHL-deficient); cell proliferation).
`CO[C@@H]1[C@H](OC(=O)NC(=O)CCl)CC[C@]2(CO2)[C@H]1[C@@]1(C)O[C@@H]1CC=C(C)C` gave an IC50 of under 0.001 µM (HUVEC; cell proliferation).
With `NC1=NN(c2ccc(Oc3ccccc3)c(S(=O)(=O)O)c2)C(=O)C1` the IC50 was under 1 µM (AP-1-luc HEK293; AP-1 luciferase reporter, inhibitor).
`O=c1c2ccccc2[se]n1-c1ccccc1` gave an IC50 of 20 µM (guinea pig alveolar macrophages; superoxide generation).
With `CN(C)CCOc1ccc(-c2oc3ncnc(NCC4SCCS4)c3c2-c2ccccc2)cc1` the IC50 was 0.005 µM (ACK1-dependent cell line; cell growth).
`C[C@@H]1CCCC(=O)N(C)/C=C/CC[C@@H](C)C(=O)O[C@@H](C(C)(C)C)C1` has an IC50 of 3.7 µM (mouse cerebrocortical neurons; Ca2+ oscillation, inhibitor).
`CC(C)=CCc1c(O)cc(-c2cc3ccc(O)cc3o2)cc1O` gave an IC50 of 16.8 µM (HepG2; mRNA level, down-regulation, item: PCSK9 mRNA).
The IC50 of `CC(=O)OCC(Cc1ccccc1)NC(=O)C(Cc1ccccc1)NC(=O)c1ccccc1` (centres unmarked) is reported as about 15 µM (neutrophils; superoxide production; added: fMLF).
`CN[C@H]1CN(c2ccc3c(=O)c(C(=O)O)cn(-c4nccs4)c3n2)C[C@@H]1OC` has an IC50 of 0.1 µM (MV4-11; cell growth).
`C[C@@]12CCC[C@@](C)(C(=O)O)[C@H]1CC[C@@]13C[C@@H](CC[C@H]12)[C@@](O)(CO)C3` gave an IC50 of 4 µM (neutrophils; superoxide production; added: fMLF).
For `COc1c2occc2cc2ccc(=O)oc12`, the IC50 was 88.5 µM (metastatic colon cancer cells; cell growth; without photoactivation).
With `CC1(C)CC[C@]2(C(=O)O)CC[C@]3(C)C(=CC[C@@H]4[C@@]5(C)CC[C@H](O)C(C)(C)[C@@H]5CC[C@]43C)[C@@H]2C1` the IC50 was 0.75 µM (human neutrophils; elastase release; added: fMLF).
With `CNC1=CC(=O)c2cc(C)ncc2C1=O` the IC50 was 0.2 to 50 µM (36 cancer cell lines; range).

Repeated from above:
With `NC1=NN(c2ccc(Oc3ccccc3)c(S(=O)(=O)O)c2)C(=O)C1` the IC50 was under 1 µM (AP-1-luc HEK293; AP-1 luciferase reporter, inhibitor).
The IC50 of `CC(=O)OCC(Cc1ccccc1)NC(=O)C(Cc1ccccc1)NC(=O)c1ccccc1` (centres unmarked) is reported as about 15 µM (neutrophils; superoxide production; added: fMLF).
With `CN(C)CCOc1ccc(-c2oc3ncnc(NCC4SCCS4)c3c2-c2ccccc2)cc1` the IC50 was 0.005 µM (ACK1-dependent cell line; cell growth).
`COc1ccc(N(C)c2nc(C)nc3ccn(C)c23)cc1` gave an IC50 of 0.0043 ± 0.0003 µM (MDA-MB-435; cell growth).
For `COc1c2occc2cc2ccc(=O)oc12`, the IC50 was 88.5 µM (metastatic colon cancer cells; cell growth; without photoactivation).
